Measurements from different studies.
Compare with care: the assays were run in different laboratories.

| Compound | organism | test | test system | setting | MIC |
| --- | --- | --- | --- | --- | --- |
| C[C@@H](c1ccn(Cc2c(F)cccc2F)n1)[C@](O)(Cn1cnnn1)c1ccc(F)cc1F | Aspergillus fumigatus | growth, broth microdilution | 7544 | 48 h, 35 °C, ≥50% inhibition | > 64 µg/mL |
| CC(C)=CCc1cc(-c2coc3cc(O)c(CC=C(C)C)c(O)c3c2=O)ccc1O | Shigella flexneri |  | DMST 4423 |  | inactive |
| Oc1c(Br)ccc2cccnc12 | Morganella morganii | microbial growth, agar dilution |  |  | 35.7 µM |
| C[C@@H](c1ccn(Cc2ccc(Cl)c(Cl)c2)n1)[C@](O)(Cn1cnnn1)c1ccc(F)cc1F | Aspergillus fumigatus | growth, broth microdilution | 7544 | 48 h, 35 °C, ≥50% inhibition | 32 µg/mL |
| CC[C@@H](C)[C@@H](NC(=O)[C@@H](C)NC(=O)[C@@H](CCCCN)NC(=O)[C@@H](CC(C)C)NC(=O)[C@@H](C)NC(=O)[C@H](NC(=O)[C@@H](Cc1c[nH]cn1)NC(=O)[C@@H](CC(C)C)NC(=O)[C@H](NC(=O)[C@H](NC(=O)[C@@H](CCCCN)NC(=O)[C@H](NC(=O)[C@@H](C)NC(=O)[C@@H](CO)NC(=O)[C@@H](CCCCN)NC(=O)[C@@H](Cc1ccccc1)NC(=O)[C@H](NC(=O)[C@@H](CCCCN)NC(=O)[C@@H](CC(C)C)NC(=O)[C@@H](Cc1ccccc1)NC(=O)[C@@H](CO)NC(=O)[C@@H](CCCCN)NC(=O)[C@@H](Cc1c[nH]c2ccccc12)NC(=O)[C@@H](CCCCN)NC(C)=O)[C@H](C)O)C(C)C)[C@H](C)O)C(C)C)[C@H](C)O)C(=O)N[C@H](CO)C(=O)N[C@H](CO)C(N)=O | Acinetobacter baumannii |  | 689, Mueller-Hinton broth | 24 h, 37 °C | 0.7 µM |
| Oc1c(Br)cc(Br)c2nc3cc(Cc4ccccc4)ccc3nc12 | Staphylococcus epidermidis | microbial growth, broth dilution | 12228 |  | 0.1 µM |
| COc1ccc2c(oc3c4ccc(O)cc4oc(=O)c23)c1CC=C(C)C | Shigella flexneri |  | DMST 4423 |  | inactive |
| Oc1c(Cl)cc(Cl)c2cccnc12 | Morganella morganii | microbial growth, agar dilution |  |  | 150 µM |
| Oc1c(Br)cc(Br)c2nc3cc(Br)ccc3nc12 | Staphylococcus epidermidis | broth microdilution | MRSE 35984 |  | 0.3 µM |
| COc1c(CC=C(C)C)c(O)cc2c1[C@@H]1Oc3c(ccc(O)c3CC=C(C)C)[C@@H]1CO2 | Shigella flexneri |  | DMST 4423 |  | inactive |
| Oc1c(Br)cc(Br)c2nc3cc(C(F)(F)F)ccc3nc12 | Staphylococcus epidermidis | broth microdilution | MRSE 35984 |  | 0.1 µM |
| COc1cc(Cn2ccc([C@H](C)[C@](O)(Cn3cnnn3)c3ccc(F)cc3F)n2)ccc1F | Aspergillus fumigatus | growth, broth microdilution | 7544 | 48 h, 35 °C, ≥50% inhibition | > 64 µg/mL |
| CC(C)=CCc1c(O)ccc2c1O[C@H]1c3cc4c(cc3OC[C@@H]21)OC(C)(C)C=C4 | Shigella flexneri |  | DMST 4423 |  | inactive |
| Oc1c(Br)cc(Br)c2nc3cc(Cl)ccc3nc12 | Staphylococcus epidermidis | broth microdilution | MRSE 35984 |  | 0.15 µM |
| CC(C)=CCc1cc([C@@H]2CC(=O)c3c(O)cc(O)c(CC=C(C)C)c3O2)cc(CC=C(C)C)c1O | Shigella flexneri |  | DMST 4423 |  | 128 µg/mL |
| CCCn1ccc([C@H](C)[C@](O)(Cn2cnnn2)c2ccc(F)cc2F)n1 | Aspergillus fumigatus | growth, broth microdilution | 7544 | 48 h, 35 °C, ≥50% inhibition | > 64 µg/mL |
| O=c1c2ccccc2sn1-c1cc(Br)cc(Br)c1 | Candida parapsilosis | growth, broth dilution | ATCC 22019 | MIC-0 | 6.25 µg/mL |
| CO[C@@H](C(N)=O)[C@H](NC(=O)c1ccc(NC(=O)c2ccc([N+](=O)[O-])cc2)cc1)C(=O)Nc1ccc(C(=O)Nc2ccc(C(=O)Nc3ccc(C(=O)O)cc3)c(O)c2OC(C)C)cc1 | Serratia marcescens | microbial growth | DSM30121 |  | > 64 µg/mL |
| C[C@@H](c1ccn(Cc2ccc(C(F)(F)F)cc2)n1)[C@](O)(Cn1cnnn1)c1ccc(F)cc1F | Aspergillus fumigatus | growth, broth microdilution | 7544 | 48 h, 35 °C, ≥50% inhibition | 64 µg/mL |
| Oc1ccccc1C1Nc2ccccc2C2=[O+][Cu-2]3([Cl])[O]c4ccccc4C=[N+]3N21 (stereo not drawn) | Mycolicibacterium smegmatis | broth microdilution | ATCC 700084 | 3 days | 64 µg/mL |
| CC(=O)N[C@H](CCCCN)C(=O)N[C@H](CC(C)C)C(=O)N[C@H](CCCCN)C(=O)N[C@H](CO)C(=O)N[C@H](CC(C)C)C(=O)N[C@H](CC(C)C)C(=O)N[C@H](CCCCN)C(=O)N[C@@H](C(=O)N[C@H](CC(C)C)C(=O)N[C@H](CO)C(=O)N[C@H](CCCCN)C(=O)N[C@H](C)C(=O)N[C@H](CCCCN)C(=O)N[C@H](CCCCN)C(=O)N[C@H](CCCCN)C(=O)N[C@H](CCCCN)C(=O)N[C@H](CC(C)C)C(=O)N[C@H](CCCCN)C(=O)N[C@@H](C(=O)N[C@H](CC(C)C)C(=O)N[C@H](CC(C)C)C(=O)N[C@H](CCCCN)C(=O)N[C@H](C)C(=O)N[C@H](CC(C)C)C(=O)N[C@H](CO)C(=O)N[C@H](CCCCN)C(N)=O)[C@H](C)O)[C@H](C)O | Acinetobacter baumannii |  | 964, Mueller-Hinton broth | 24 h, 37 °C | 0.7 µM |
| CC(C)c1ccc(Cn2ccc([C@H](C)[C@](O)(Cn3cnnn3)c3ccc(F)cc3F)n2)cc1 | Aspergillus fumigatus | growth, broth microdilution | 7544 | 48 h, 35 °C, ≥50% inhibition | > 64 µg/mL |
| CC[C@@H](C)[C@@H](NC(=O)[C@@H](C)NC(=O)[C@@H](CCCCN)NC(=O)[C@@H](CC(C)C)NC(=O)[C@@H](CC(C)C)NC(=O)[C@H](NC(=O)[C@@H](CCCCN)NC(=O)[C@@H](CC(C)C)NC(=O)[C@@H](CCCCN)NC(=O)[C@@H](CCCCN)NC(=O)[C@@H](CCCCN)NC(=O)[C@@H](CCCCN)NC(=O)[C@@H](C)NC(=O)[C@@H](CCCCN)NC(=O)[C@@H](CO)NC(=O)[C@@H](Cc1ccccc1)NC(=O)[C@H](NC(=O)[C@@H](CCCCN)NC(=O)[C@@H](CC(C)C)NC(=O)[C@@H](Cc1ccccc1)NC(=O)[C@@H](CO)NC(=O)[C@@H](CCCCN)NC(=O)[C@@H](Cc1c[nH]c2ccccc12)NC(=O)[C@@H](CCCCN)NC(C)=O)[C@H](C)O)[C@H](C)O)C(=O)N[C@H](CO)C(=O)N[C@H](CCCCN)C(N)=O | Acinetobacter baumannii | broth microdilution | ATCC 19606 | 24 h, 37 °C | 0.6 µM |
| C[C@@H](c1ccn(Cc2ccc(F)c(Cl)c2)n1)[C@](O)(Cn1cnnn1)c1ccc(F)cc1F | Aspergillus fumigatus | growth, broth microdilution | 7544 | 48 h, 35 °C, ≥50% inhibition | > 64 µg/mL |
